Published values of several laboratories.
Lines come from different studies, so protocols differ. Values joined by “and” are separate records of one study, mostly repeats; a detail may differ. ± marks the error that the study gave.

SMILES	test	test system	conditions	scale	endpoint	result
CCCCCCCCCCC[C@H](OC1OC[C@H](O)[C@@H](O)[C@@H]1O)[C@H](O)[C@H](O)C[C@@H]1CC(=O)N[C@H](CO)C(=O)N[C@H]([C@H](O)c2ccc(O)cc2)C(=O)N[C@H](CCN)C(=O)NCC(=O)N[C@@H](CC(N)=O)C(=O)N[C@@H](CO)C(=O)N[C@@H]([C@H](O)C(N)=O)C(=O)N1 (some centres unmarked)	LC-MS/MS	rabbit plasma	800 ng/mL, 3 freeze-thaw cycles	baseline: nominal concentration	freeze-thaw stability, deviation	-0.802%
Cn1nc(NS(C)(=O)=O)c2c(Cl)ccc(-n3c([C@H](Cc4cc(F)cc(F)c4)NC(=O)Cn4nc(C(F)F)c5c4C(F)(F)[C@@H]4C[C@H]54)nc4nc(OCCC(F)(F)F)ccc4c3=O)c21	refers to: blood triglycerides increased	human	200 mg, powder in bottle		drug-related adverse events	17%
COc1ccc2nc3cc(Cl)ccc3c(Nc3cc(CN4CCCC4)c(O)c(CN4CCCC4)c3)c2n1		mouse, blood	oral, 57 mg/kg, tolerability, mean		aspartate aminotransferase	49.3 U/L
C[C@]1(CO)Cc2ncn(-c3ccc(C#N)c(Cl)c3)c2C(=O)O1		human, Chinese, plasma	60 mg single dose, median		tmax	1 h
COc1cccc(Oc2ccccc2NC(=O)CNC(=O)c2cccc3ccccc23)c1		esterase-deficient SCID mice, male	oral, 100 mg/kg/day, 14 days, toxicity study		unconjugated bilirubin	0.1 mg/dL
CC[C@H](C)[C@H](NC(=O)[C@H](CC(C)C)NC(=O)[C@H](Cc1c[nH]c2ccccc12)NC(=O)[C@H](CCC(N)=O)NC(=O)[C@@H](NC(=O)[C@H](Cc1ccccc1)NC(=O)[C@H](C)NC(=O)[C@H](CCCCNC(=O)COCCOCCNC(=O)COCCOCCNC(=O)CC[C@H](NC(=O)CCCCCCCCCCCCCCCCCCC(=O)O)C(=O)O)NC(=O)[C@H](CCC(N)=O)NC(=O)[C@H](C)NC(=O)[C@@H](NC(=O)[C@H](CCCCN)NC(=O)[C@H](CC(=O)O)NC(=O)[C@H](CC(C)C)NC(=O)C(C)(C)NC(=O)[C@@H](NC(=O)[C@H](CO)NC(=O)[C@H](Cc1ccc(O)cc1)NC(=O)[C@H](CC(=O)O)NC(=O)[C@H](CO)NC(=O)[C@@H](NC(=O)[C@H](Cc1ccccc1)NC(=O)[C@@H](NC(=O)CNC(=O)[C@H](CCC(=O)O)NC(=O)C(C)(C)NC(=O)[C@@H](N)Cc1ccc(O)cc1)[C@@H](C)O)[C@@H](C)O)[C@@H](C)CC)[C@@H](C)CC)C(C)C)C(=O)N[C@@H](C)C(=O)NCC(=O)NCC(=O)N1CCC[C@H]1C(=O)N[C@@H](CO)C(=O)N[C@@H](CO)C(=O)NCC(=O)N[C@@H](C)C(=O)N1CCC[C@H]1C(=O)N1CCC[C@H]1C(=O)N1CCC[C@H]1C(=O)N[C@@H](CO)C(N)=O		human	subcutaneous, 5 mg, Cockcroft-Gault creatinine clearance		AUC(0-tlast) slope versus CLcr	-118 ng.h/mL per mL/min
CC(C)C[C@H](NC(=O)[C@H](CCCCN)NC(=O)OCC1c2ccccc2-c2ccccc21)C(=O)N[C@H](C(=O)N[C@@H](Cc1ccccc1)C(=O)N[C@@H](Cc1ccccc1)C(=O)N[C@@H](CCCCN)C(=O)NCC(=O)N[C@@H](Cc1ccccc1)C(=O)N[C@@H](C)C(=O)N[C@@H](Cc1c[nH]c2ccccc12)C(=O)N[C@@H](CC(N)=O)C(=O)N[C@H](C(=O)N[C@H]1CSSC[C@@H](C(=O)N[C@@H](Cc2c[nH]cn2)C(=O)N[C@@H](CCCNC(=N)N)C(=O)N[C@@H](CCCNC(=N)N)C(=O)N[C@@H](C)C(=O)N[C@@H](CC(N)=O)C(N)=O)NC(=O)[C@H](C(C)C)NC(=O)[C@H](CCCNC(=N)N)NC(=O)[C@H](C(C)C)NC(=O)CNC(=O)[C@H](CC(N)=O)NC(=O)[C@H](CCCNC(=N)N)NC(=O)[C@H](Cc2ccc(O)cc2)NC(=O)[C@H](C(C)C)NC1=O)C(C)C)C(C)C		ICR mice, blood	intraductal mammary, 10 mg/kg, day 5		monocytes	3.36 ± 0.35%
Cn1cncc1-c1c(F)cncc1NC(=O)c1c(N)nn2cc(F)cnc12		human patients	oral, 130 mg once daily, 21 days		dose-limiting toxicity platelet decrease	0%
CC(C)C[C@H](NC(=O)[C@H](C)NC(=O)[C@@H](NC(=O)[C@H](CCCNC(=N)N)NC(=O)[C@H](CC(C)C)NC(=O)[C@H](Cc1c[nH]c2ccccc12)NC(=O)[C@@H]1CCCN1C(=O)[C@@H](N)CCCCN)C(C)C)C(=O)N[C@@H](CS)C(=O)N1CCC[C@H]1C(=O)NCC(=O)O		sheep red blood cells	8 µM, 1 h, 37 °C		hemolysis	0.1% and 1.01% and 0.78%
COc1cc2c(Oc3ccc4[nH]c(C)cc4c3F)ccnc2cc1OCC1(N)CC1	refers to: grade 3 gingival bleeding	paediatric high-risk refractory sarcoma	whole group		incidence of adverse event	0%
C[C@@H]1OC(=O)NN=C1c1ccc(-c2ccc(F)cc2)c(C(F)(F)F)c1	phase I trial, refers to: AST increased all grades	human patients	20 mg loading then 1 mg daily		patients with adverse event	50%
CC(C)Nc1ccnc(Nc2cccc(-c3cccnc3)c2)n1	refers to: amylase	mouse, blood	intraperitoneal, 3 mg/kg		blood chemistry	2330 U/L
[2H]C([2H])([18F])[C@]([2H])(N)C(=O)O	PET	athymic nude mice, U-87 MG	dose not given, 30 min post-injection	baseline: tumour over muscle	tumour-to-muscle ratio	1.12 ± 0.15
Oc1ccc(CSCc2ccc(O)cc2)cc1		ICR mice male	oral, 3000 mg/kg, day 15, acute toxicity	baseline: day 1	body weight gain	6.87 ± 1 g
Clc1ccc(-c2cc(Cl)c(Cl)cc2Cl)cc1Cl		whole cow milk	2000 nM nominal		dose fraction in skim milk	4.17%
CC[C@H](C)[C@H](NC(=O)[C@H](Cc1ccccc1)NC(=O)[C@H](CCC(=O)O)NC(=O)[C@H](CCCNC(=N)N)NC(=O)[C@H](C)NC(=O)[C@H](C)NC(=O)[C@H](CCC(N)=O)NC(=O)[C@H](CCC(=O)O)NC(=O)[C@H](CCC(=O)O)NC(=O)[C@H](CC(C)C)NC(=O)[C@H](Cc1ccc(O)cc1)NC(=O)[C@H](CO)NC(=O)[C@H](CO)NC(=O)[C@@H](NC(=O)[C@H](CC(=O)O)NC(=O)[C@H](CO)NC(=O)[C@@H](NC(=O)[C@H](Cc1ccccc1)NC(=O)[C@@H](NC(=O)CNC(=O)[C@H](CCC(=O)O)NC(=O)[C@H](C)NC(=O)CCc1cnc[nH]1)[C@@H](C)O)[C@@H](C)O)C(C)C)C(=O)N[C@@H](C)C(=O)N[C@@H](Cc1c[nH]c2ccccc12)C(=O)N[C@@H](CC(C)C)C(=O)N[C@H](C(=O)N[C@@H](CCCNC(=N)N)C(=O)NCC(=O)N[C@@H](CCCNC(=N)N)C(=O)N[C@@H](CCCCNC(=O)COCCOCCNC(=O)COCCOCCNC(=O)CC[C@H](NC(=O)CCCCCCCCCCCCCCCCC(=O)O)C(=O)O)C(=O)NCC(=O)NCC(=O)N[C@@H](CO)C(=O)N[C@@H](CCSC)C(=O)N[C@H](C(=O)N[C@@H](CCCCNc1c(NCCCCCN(O)C(=O)CCC(=O)NCCCCCN(O)C(=O)CCC(=O)NCCCCCN(O)C(C)=O)c(=O)c1=O)C(=O)O)C(C)C)C(C)C [zirconium-89 labelled]	ex vivo gamma counting	male Sprague-Dawley rats, lung	intravenous, 1 nmol, 72 h, mean of 3 animals		tissue uptake	0.77 %ID/g
C[C@H]1COCCN1c1nc(NCc2cccnc2C(F)(F)F)c2cccnc2n1		BALB/c mice	oral, 10 mg/kg		AUC(0-24 h)	18000 ng·h/mL
O=S(=O)(Nc1ccccc1)c1ccc(NC(=S)Nc2ccccc2)cc1		mouse, male, blood	oral, 80 mg/kg daily, 14 days		mean corpuscular haemoglobin	14.9 pg
COc1ncnn2ccc(-c3cnc4nc(C)n(Cc5nnc([C@@H](C)F)o5)c4c3)c12		human	oral, dose not given, grade 4		patients with fatigue	0%
C=CC(=O)N1CC[C@H](n2nc(C#Cc3cc(OC)cc(OC)c3)c3c(N)ncnc32)C1		human patients	oral, dose not given, QD regimen, adverse drug reaction, added: ferric citrate hydrate		hyperphosphatemia incidence, grade ≥3	0%
C1=Cc2nc1cc1ccc([n-]1)c(-c1ccccc1)c1nc(cc3ccc([n-]3)c2-c2ccccc2)C=C1.CC(=O)[O-].[Mn+3]	LC-MS/MS	Sprague-Dawley rat, plasma	oral gavage, dose not given, 60 min		plasma concentration	53 ng/mL and 80 ng/mL
C=CC(=O)Nc1cc(Nc2nccc(Nc3cc(Cl)c(F)cc3C(C)(C)O)n2)c(OC)cc1N1CC[C@@H](N(C)C)C1	treatment-emergent adverse events	human	oral, 100 mg, phase I clinical trial		incidence of weight decreased	33.3%
O=C1Nc2cc3[nH]nc(-c4ccncc4)c3cc2CN1Cc1ccccc1	CTCAE v4.03	advanced solid tumour patients	intravenous, 3.6 mg/kg, schedules 1/2		patients with headache	33%
CO[C@H]1C[C@@H]2CC[C@@H](C)[C@@](O)(O2)C(=O)C(=O)N2CCCC[C@H]2C(=O)O[C@H]([C@H](C)C[C@@H]2CC[C@@H](OC(=O)NCCOCCOCCOCCOCCOCCOCCOCCOCCC(=O)N3CCc4cc(Cn5nc(-c6ccc7oc(N)nc7c6)c6c(N)ncnc65)ccc4C3)[C@H](OC)C2)C[C@@H](O)[C@H](C)/C=C(\C)[C@@H](O)[C@@H](OC)C(=O)[C@H](C)C[C@H](C)/C=C/C=C/C=C/1C	phase 1 dose escalation, refers to: mucositis	advanced solid tumour patients	intravenous, 6 mg weekly, any grade		dose-reducing adverse events	0%
CCc1ccc(CC/C=C/c2ccc3c(c2)C(=O)CC3)cc1		Sprague-Dawley rat, male	oral, 30 mg/kg/day, 14 days		Basophil percentage	0.4%
O=C(O)CCCOc1ccc(F)cc1-c1cc(-c2ccccc2C(F)(F)F)n(-c2ccccc2)n1	refers to: UN	Crl:CD(SD) rats, male, blood	iv, 25 µg/kg, 14 days		blood chemistry	16.3 ± 2.8 mg/dL

For quick reference, copied from above:
SMILES	test	test system	conditions	scale	endpoint	result
C[C@]1(CO)Cc2ncn(-c3ccc(C#N)c(Cl)c3)c2C(=O)O1		human, Chinese, plasma	60 mg single dose, median		tmax	1 h
COc1cccc(Oc2ccccc2NC(=O)CNC(=O)c2cccc3ccccc23)c1		esterase-deficient SCID mice, male	oral, 100 mg/kg/day, 14 days, toxicity study		unconjugated bilirubin	0.1 mg/dL
CC[C@H](C)[C@H](NC(=O)[C@H](CC(C)C)NC(=O)[C@H](Cc1c[nH]c2ccccc12)NC(=O)[C@H](CCC(N)=O)NC(=O)[C@@H](NC(=O)[C@H](Cc1ccccc1)NC(=O)[C@H](C)NC(=O)[C@H](CCCCNC(=O)COCCOCCNC(=O)COCCOCCNC(=O)CC[C@H](NC(=O)CCCCCCCCCCCCCCCCCCC(=O)O)C(=O)O)NC(=O)[C@H](CCC(N)=O)NC(=O)[C@H](C)NC(=O)[C@@H](NC(=O)[C@H](CCCCN)NC(=O)[C@H](CC(=O)O)NC(=O)[C@H](CC(C)C)NC(=O)C(C)(C)NC(=O)[C@@H](NC(=O)[C@H](CO)NC(=O)[C@H](Cc1ccc(O)cc1)NC(=O)[C@H](CC(=O)O)NC(=O)[C@H](CO)NC(=O)[C@@H](NC(=O)[C@H](Cc1ccccc1)NC(=O)[C@@H](NC(=O)CNC(=O)[C@H](CCC(=O)O)NC(=O)C(C)(C)NC(=O)[C@@H](N)Cc1ccc(O)cc1)[C@@H](C)O)[C@@H](C)O)[C@@H](C)CC)[C@@H](C)CC)C(C)C)C(=O)N[C@@H](C)C(=O)NCC(=O)NCC(=O)N1CCC[C@H]1C(=O)N[C@@H](CO)C(=O)N[C@@H](CO)C(=O)NCC(=O)N[C@@H](C)C(=O)N1CCC[C@H]1C(=O)N1CCC[C@H]1C(=O)N1CCC[C@H]1C(=O)N[C@@H](CO)C(N)=O		human	subcutaneous, 5 mg, Cockcroft-Gault creatinine clearance		AUC(0-tlast) slope versus CLcr	-118 ng.h/mL per mL/min
